Experimental data gathered from unrelated publications.
“And” joins repeats or separate records; there may be more than shown. ± marks the error that the study gave.

SMILES	target or system	assay	test system	conditions	scale	quantity	value
Cc1cc(-c2ccc(C(=O)[C@@H]3CCCC[C@H]3C(=O)Nc3cnn4c3C(=O)NCC4)cc2)[nH]n1	–	–	human, faeces	oral, 200 mg, mean of six subjects	baseline: dose	recovery of radioactivity	79.3%
COc1cccc(OC)c1-c1cc(C(=O)NC2(C(=O)O)C3CC4CC(C3)CC2C4)nn1-c1ccc(C(=O)N(C)CCOCCOCCN(C)C(=O)[C@H](CCCCNC(=O)[C@H](CC(C)C)NC(=O)C2OC2C(=O)O)NC(=O)CN2CCN(CC(=O)[O-])CCN(CC(=O)[O-])CCN(CC(=O)[O-])CC2)cc1C(C)C.[177Lu+3] (mixture of isomers)	–	–	mouse HT-29 xenograft	72 h, biodistribution	baseline: tumour over spleen	tumour-to-spleen ratio	4.52
COC(=O)C(C)n1nc(Cn2cc3cc(OCC[18F])c(Cl)cc3n2)c2ccccc2c1=O (racemic)	–	–	rat, plasma	5 min	–	parent compound	90%
C=C(NC(=O)c1csc(-c2nc3c(cc2O)-c2nc(cs2)C(=O)NC(C(C)O)C(=O)NC(=C(C)OC)c2nc(cs2)C(=O)NC2c4nc(cs4)C(=O)NC(COC(=O)c4c5c6c(cccc6n4O)COC(=O)C(OC4CC(C)(O)C(N(C)C)C(C)O4)C2OC5)c2nc-3cs2)n1)C(N)=O (stereo not shown)	–	–	cynomolgus monkey, plasma	intravenous, 9 mg/kg, single dose, infusion	–	AUC(0-inf)	45100 ng·h/mL
CC(C)(O)c1ncc([S@](N)(=O)=NC(=O)Nc2c3c(cc4c2CCC4)CCC3)s1	–	refers to: vascular disorders	healthy human	oral, 100 mg, all formulations pooled	–	subjects with TEAEs	33%
Nc1ncc(-c2cc(-c3cnn(CC(F)(F)F)c3)ncc2F)nc1C(=O)NC1CNCC(F)C1 (stereo not shown)	ARK5	KINOMEscan	–	1 µM	baseline: DMSO control	remaining binding	93%
COC(=O)CN1CCN(Cc2cc(-c3nc4ccccc4s3)cc(OC)c2O)CCN(Cc2cc(-c3nc4ccccc4s3)cc(OC)c2O)CC1	–	UV-vis spectrophotometric titration	aqueous NaCl 0.1 M	20 µM, 25 °C, pH 3 to 11	–	pKa2	5.09
COc1cccc(OC)c1-c1cc(C(=O)NC2(C(=O)O)C3CC4CC(C3)CC2C4)nn1-c1ccc(C(=O)N(C)CCCN(C)C(=O)[C@H](CCCCNC(=O)[C@H](CC(C)C)NC(=O)C2OC2C(=O)O)NC(=O)CN2CCN(CC(=O)[O-])CCN(CC(=O)[O-])CCN(CC(=O)[O-])CC2)cc1C(C)C.[177Lu+3] (mixture of isomers)	–	–	mouse HT-29 xenograft	4 h, biodistribution	baseline: tumour over pancreas	tumour-to-pancreas ratio	11.2
CC(C)C[C@@H](NC(=O)[C@H](NC(=O)[C@H]1CCCN1)[C@H](C)O)C(=O)N[C@H](Cc1c[nH]cn1)C(=O)N[C@@H](C(=O)N[C@H](Cc1c[nH]cn1)C(=O)N[C@H](CC(N)=O)C(=O)N[C@H](CCCNC(=N)N)C(=O)N[C@H](CCCNC(=N)N)C(=O)N[C@H](CCCNC(=N)N)C(=O)N[C@H](CCCNC(=N)N)C(=O)N[C@H](CCCNC(=N)N)C(N)=O)[C@H](C)O	–	–	Beagle dog, blood	oral, 30 mg/kg daily, 3 months	–	triglycerides	2.6 mmol/L
C=CC(=O)Nc1cc(Nc2nccc(-c3c[nH]c4ccccc34)n2)c(OC)cc1N(C)CCN(C)C	–	storage stability	human plasma	30 d, -80 °C, LLOQ level	–	recovery	97.6%
CN[C@H]1CC[C@H]([C@@]2(C)Oc3c(Cl)cc(C(=O)NCc4c(C)cc(C)[nH]c4=O)c(C)c3O2)CC1	–	radiochromatography	human, feces	oral, 200 mg	baseline: dose	fecal excretion	3.2% and 2.3% and 1.5%
Cc1noc(C)c1Cn1cc(N2C(=O)CN(Cc3cccc(OS(=O)(=O)O)c3)C2=O)cn1	–	–	rat Sprague-Dawley male, plasma	intravenous, 1 mg/kg of parent drug, 8 h	–	plasma concentration	108 ng/mL
CCCCN1C(=O)c2cccc3c(NCCN4CCOCC4)ccc(c23)C1=O	–	–	ethylene glycol	–	–	emission maximum	535 nm
Cc1nn(-c2nc3c(F)cc(F)cc3s2)c(O)c1C(c1ccc(C(F)(F)F)cc1)c1c(C)nn(-c2nc3c(F)cc(F)cc3s2)c1O	–	–	ICR mouse	oral, 50 mg/kg, 0.25 h	–	plasma concentration	36800 ng/mL and 21800 ng/mL and 36400 ng/mL
CCCCN1C(=O)c2cccc3c(NCCCCCN4CCOCC4)ccc(c23)C1=O	–	–	ethyl acetate	–	–	fluorescence lifetime	9.6 ns
COc1cccc(OC)c1-c1cc(C(=O)NC2(C(=O)O)C3CC4CC(C3)CC2C4)nn1-c1ccc(C(=O)N(C)CCOCCN(C)C(=O)[C@H](CCCCNC(=O)[C@H](CC(C)C)NC(=O)C2OC2C(=O)O)NC(=O)CN2CCN(CC(=O)[O-])CCN(CC(=O)[O-])CCN(CC(=O)[O-])CC2)cc1C(C)C.[177Lu+3] (mixture of isomers)	–	–	mouse HT-29 xenograft	72 h, biodistribution	baseline: tumour over pancreas	tumour-to-pancreas ratio	18.9
O=C(Nc1cnccc1-c1ccc([18F])cc1)c1ccnc(NC(=O)C2CC2)c1	–	ex vivo gamma counting	GSK-3β transgenic mice, late-stage, feces	intravenous, 120 min, mean, no P-gp inhibitor	–	SUV	6.17
CC[C@H](C)[C@@H]1NC(=O)[C@H](Cc2ccc(O)cc2)NC(=O)CCSCc2cccc(c2)CSCCNC(=O)[C@H](Cc2c[nH]cn2)NC(=O)[C@H](Cc2ccc(O)cc2)NC(=O)[C@H](CC(=O)O)NC(=O)[C@H](Cc2ccc(O)cc2)NC(=O)[C@H](CC(C)C)NC(=O)[C@H](CCCNC(=N)N)NC1=O	–	PAMPA	–	200 µM, 5 h, pH 7.4	–	membrane retention	< -0.08%
O=C(NC1CCCCC1)c1ccnc(N2Cc3cn(Cc4ccc(F)cc4)nc3C2)n1	–	metabolic stability	rat, liver microsomes	–	–	half-life	3.5 min
O=C([O-])CN1CCN(CC(=O)[O-])CCN(C(CO)C(O)CO)CCN(CC(=O)[O-])CC1.[Dy+3] (stereo not shown)	–	–	cynomolgus monkey, liver	dose not given, day 58, PK group	–	lanthanide tissue concentration	0.29 ± 0.09 nmol/g
CCCCN1C(=O)c2cccc3c(NCCCN4CCOCC4)ccc(c23)C1=O	–	–	ethyl acetate	–	–	emission maximum	509 nm
CC(C)(C)C(=O)Nc1ccc2[nH]c(CN3CCC(N(CCCN4CCOCC4)CC4OC(n5cnc6c(N)ncnc65)C(O)C4O)CC3)nc2c1 (stereo not shown)	–	–	male Sprague-Dawley rat, plasma	intravenous, 20 mg/kg, 4.98 min	–	concentration	5620 ng/mL

SMILES	target or system	assay	test system	conditions	scale	quantity	value
Cc1cnc2nc1Nc1cccc(c1)COC/C=C/COCc1cc(ccc1OCCN1CCOCC1)N2	–	–	BALB/c mice, rhEPO-induced polycythemia	75 mg/kg, day 0	–	body weight	18.3 g and 19.7 g and 18.2 g and 19.4 g and 18 g and 17.4 g
NC(=O)[C@H](CCC(=O)O)NC(=O)[C@H](CCC(=O)O)NC(=O)[C@H](Cc1ccc(O)cc1)NC(=O)[C@H](Cc1ccccc1)NC(=O)[C@H](Cc1ccccc1)NC(=O)OCC1c2ccccc2-c2ccccc21	–	CD spectroscopy	peptide nanofibres	–	–	β-sheet content	33.8%
CCCCN1C(=O)c2cccc3c(NCCCCN4CCOCC4)ccc(c23)C1=O	–	–	acetonitrile	–	–	emission maximum	520 nm
CC(C)=CCC1=C([O-])C(=O)c2ccccc2C1=O.CC(C)=CCC1=C([O-])C(=O)c2ccccc2C1=O.[Zn+2].c1ccc(-c2ccnc3c2ccc2c(-c4ccccc4)ccnc23)cc1	–	cyclic voltammetry	CH2Cl2, Bu4NPF6	0.1 mM	baseline: Ag/AgCl sat. KOH	Epc1 cathodic peak potential	0.63 V
C=CC(=O)Nc1cc(Nc2nccc(-c3cn(C)c4ccccc34)n2)c(OC)cc1N(C)CCNC	–	–	human plasma	24 h, storage stability, low QC sample	–	recovery	66.1%
[123I]c1ccc2nc(-c3ccc(-n4ccnn4)nc3)cn2c1	–	–	male Wistar rat, kidney	intravenous, 4 MBq, 30 min	–	tracer uptake	1.55 %ID/g
Cc1ncsc1-c1ccc(C(C)NC(=O)C2CC(O)CN2C(=O)C(NC(=O)CCCCCCCCCCN2CCCC(Nc3ncc(Cl)c(Nc4ccccc4S(=O)(=O)C(C)C)n3)C2)C(C)(C)C)cc1 (stereo not shown)	22Rv1	RNA-seq, refers to: MAST4 mRNA	–	concentration not given	baseline: DMSO	log2 fold change	-1.16
CCC1CNC(CC)CN(C(C(=O)[O-])c2ccc(C(=O)[O-])cc2)C(CC)CN(CC(=O)[O-])C(CC)CN1.[Mn+2] (stereo not shown)	–	ICP-MS	BALB/c mouse, kidney	intravenous, 0.05 mmol/kg, 1440 min, without anaesthesia	–	Mn content	1.85 ± 0.2 µg/g
C/C(N)=N/C(=N\S(=O)(=O)c1ccc(C(F)(F)F)cc1)N1C[C@H](c2ccccc2)C(c2ccc(Cl)cc2)=N1	–	–	beagle dog, plasma	oral, 36 mg/kg	–	Cmax	2490 ng/mL
CN(O)C(=O)CCC(=O)NCCCN(CCCCN(CCCNC(=O)CCC(=O)N(C)O)C(=O)CCC(=O)N(C)O)C(=O)CCC(=O)N(C)O.[89Zr]	–	–	mouse, liver	1 h	–	tracer uptake	0.53 %ID/g
Cc1nc(N)nc2c1C(=O)N[C@@H](c1ccc(F)cc1-c1cccc(O[11CH3])n1)C2	–	ex vivo biodistribution	mice, MDA-MB-231 subcutaneous xenograft, blood	60 min post-injection, baseline, vehicle pre-treatment	–	SUV	0.6 ± 0.01
Cc1cc(O)c(=O)c(O)cc1C(=O)c1cccs1	HepDES19	cell growth or viability, MTS	–	72 h	–	CC50	25.8 µM
COc1cc2oc(-c3ccc(OC(F)(F)F)cc3)cc(=O)c2c(O)c1O	–	cyclic voltammetry	DMSO, 0.1 M Bu4NPF6	25 °C	–	half-wave potential	-1.82 V vs Ag/AgCl
O=C(c1cccc(N2Cc3cn(Cc4ccc(F)cc4)nc3C2)c1)N1CCNCC1	–	metabolic stability	rat, liver microsomes	–	–	half-life	13 min
CCCCN1C(=O)c2cccc3c(NCCCCCCCCCCN4CCOCC4)ccc(c23)C1=O	–	–	DMSO	–	–	emission maximum	535 nm
COCC1CN(C2CCN(c3cc(OC)c(Nc4ncc(Br)c(Nc5ccc6c(c5P(C)(C)=O)OCCO6)n4)cc3C)CC2)C1	–	–	EGFR-mutant NSCLC patients	oral, 240 mg once daily	–	patients with adverse events	100%
Cc1ccc(CN2C(=O)/C(=N\c3ccc(Cl)cc3Br)c3ccccc32)cc1	–	–	mouse, blood	200 mg/kg	–	MCH	15.3 ± 0.57 pg
CC(C)C[C@H](NC(=O)[C@@H](CCCCNC(=O)[C@@H](Cc1ccccc1)NC(=O)CCCCCCCNC(=O)CN1CCN(CC(=O)O)CCN(CC(=O)O)CCN(CC(=O)O)CC1)NC(=O)[C@H](Cc1ccc(O)cc1)NC(=O)[C@H](CO)NC(=O)[C@H](Cc1c[nH]c2ccccc12)NC(=O)[C@H](Cc1c[nH]cn1)NC(=O)[C@@H]1CCC(=O)N1)C(=O)N[C@@H](CCCNC(=N)N)C(=O)N1CCC[C@H]1C(=O)NCC(N)=O [indium-111 labelled]	–	–	male athymic nude mice, DU-145 prostate cancer xenograft, urine	intravenous, 0.037 MBq, 4 h	–	excreted dose	90.5 ± 2.53%
C=CC(=O)N1CCCC(n2c(=O)c3ncccc3n(Cc3ccc(Oc4ccccc4)cc3)c2=O)C1 (stereo not shown)	–	metabolic stability	male Sprague-Dawley rat, hepatocytes	1 µM, 2 h	–	compound remaining	0%
C=C[C@]1(C)C[C@@H](OC(=O)CSc2ccc(NC(=O)c3ccco3)cc2)[C@]2(C)[C@H](C)CC[C@]3(CCC(=O)[C@H]32)[C@@H](C)[C@@H]1O	–	–	Mycoplasma gallisepticum-infected chickens, plasma	intramuscular, 80 mg/kg, 4 h	–	plasma concentration	315 ng/mL and 636 ng/mL and 600 ng/mL and 564 ng/mL and 964 ng/mL and 1080 ng/mL and 999 ng/mL and 596 ng/mL
COc1cnc2cccc(N3CCc4c(cc(Cn5ccnc5)cc4-c4cn(C)nc4C(F)(F)F)C3=O)c2c1	–	–	male CD-1 mouse, plasma	intraperitoneal, 50 mg/kg	–	half-life	78 min

For quick reference, copied from above:
SMILES	target or system	assay	test system	conditions	scale	quantity	value
CCCCN1C(=O)c2cccc3c(NCCN4CCOCC4)ccc(c23)C1=O	–	–	ethylene glycol	–	–	emission maximum	535 nm
Cc1cc(-c2ccc(C(=O)[C@@H]3CCCC[C@H]3C(=O)Nc3cnn4c3C(=O)NCC4)cc2)[nH]n1	–	–	human, faeces	oral, 200 mg, mean of six subjects	baseline: dose	recovery of radioactivity	79.3%
Cc1ncsc1-c1ccc(C(C)NC(=O)C2CC(O)CN2C(=O)C(NC(=O)CCCCCCCCCCN2CCCC(Nc3ncc(Cl)c(Nc4ccccc4S(=O)(=O)C(C)C)n3)C2)C(C)(C)C)cc1 (stereo not shown)	22Rv1	RNA-seq, refers to: MAST4 mRNA	–	concentration not given	baseline: DMSO	log2 fold change	-1.16
